Measurements from different studies.
Each line is one published result; not all experiments were run side by side.
PRKG1 isoform beta: cGMP-dependent protein kinase 1, isoform beta (PRKG1, Homo sapiens, UniProt Q13976)
UniProt Q13976, sequence (whole entry, looked up): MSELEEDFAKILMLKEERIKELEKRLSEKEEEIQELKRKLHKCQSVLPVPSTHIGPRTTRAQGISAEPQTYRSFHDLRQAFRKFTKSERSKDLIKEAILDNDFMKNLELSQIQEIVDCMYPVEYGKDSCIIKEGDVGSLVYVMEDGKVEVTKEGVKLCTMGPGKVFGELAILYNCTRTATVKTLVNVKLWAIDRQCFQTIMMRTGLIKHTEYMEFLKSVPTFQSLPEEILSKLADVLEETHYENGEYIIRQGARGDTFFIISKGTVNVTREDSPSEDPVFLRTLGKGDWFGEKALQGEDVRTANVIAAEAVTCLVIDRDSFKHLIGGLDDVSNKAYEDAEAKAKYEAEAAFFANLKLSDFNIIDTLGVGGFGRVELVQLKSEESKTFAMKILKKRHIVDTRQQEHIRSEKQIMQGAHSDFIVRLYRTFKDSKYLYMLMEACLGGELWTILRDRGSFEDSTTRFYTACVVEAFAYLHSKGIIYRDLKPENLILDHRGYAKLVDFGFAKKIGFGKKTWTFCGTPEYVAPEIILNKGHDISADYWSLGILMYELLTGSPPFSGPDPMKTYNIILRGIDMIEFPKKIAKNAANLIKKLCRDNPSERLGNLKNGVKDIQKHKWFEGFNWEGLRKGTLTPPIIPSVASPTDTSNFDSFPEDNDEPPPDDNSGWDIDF
PRKG1: cGMP-dependent protein kinase 1 (PRKG1, Homo sapiens, UniProt Q13976)

Cc1ccc(NC(=O)c2ccc(C)c(C(F)(F)F)c2)cc1C#Cc1nn(C2CCC(O)CC2)c2ncnc(N)c12 (centres unmarked) gave a remaining activity of 115% (PRKG1 isoform beta; enzyme activity; 10 µM, with: ATP 10 µM).
CCN(CC)c1ccc(C2=NNC(=O)CC2C)cc1[N+](=O)[O-] (centres unmarked) gave a remaining activity of 90% (PRKG1 isoform beta; kinase activity, inhibitor; 10 µM).
For CC(C)c1ccc(NC(=O)c2cccs2)c(-c2nc3ccccc3[nH]c2=O)c1, the remaining activity was 95% (PRKG1 isoform beta; kinase activity; 1 µM).
With C=CC(=O)N1CCC(COCC(=O)N2CCN(c3nc(-c4cnc(N)nc4C(F)F)nc(N4CCOC[C@@H]4C)n3)CC2)CC1 the remaining binding was 96% (PRKG1; KINOMEscan; 1 µM).
Cc1ccc(C(=O)NCc2ccsc2)cc1C#Cc1cn(C(C)C)c2ncnc(N)c12 gave a remaining activity of 126% (PRKG1 isoform beta; kinase activity; 1 µM, with: ATP at Km).
Cn1cnc(Br)c1C1=CN(c2ncnc3[nH]cnc23)CCS1 has an inhibition of 68.8% (PRKG1 isoform beta; enzyme activity; 0.05 µM).
With COc1cc(-c2cncc3c2CN(C)Cc2cc(N4CCNCC4)ccc2-3)cc(OC)c1OC the remaining activity was 107% (PRKG1 isoform beta; enzyme activity; 1 µM, with: 10 µM ATP; relative to: DMSO).
The remaining activity of Cc1cc(NC(=O)c2cccc3cc(-c4cccc5[nH]nc(N)c45)ccc23)ccc1F is reported as 70% (PRKG1 isoform beta; enzyme activity, kinase profiling panel; 0.1 µM).
CC(C)(O)[C@H]1CC[C@H](Nc2ccc3ncc(-c4cccc(C(F)(F)F)c4)n3n2)CC1 has a remaining activity of 89.6% (PRKG1; enzyme activity, inhibitor; 1 µM, with: 10 µM ATP; relative to: DMSO).
For CCCOc1ccc(OC)c(F)c1C(=O)c1ccc(C(=O)N[C@@H]2CNC[C@H]2NC(=O)c2ccc3[nH]ncc3c2)cc1, the remaining activity was -1% (PRKG1 isoform beta; kinase activity; 10 µM).
Cc1cc(Nc2cc(N3CCN(C)CC3)nc(Sc3ccc(NC(=O)C4CC4)cc3)n2)[nH]n1 has a remaining activity of 98% (PRKG1 isoform beta; kinase activity, KinaseProfiler; 0.03 µM, species human; relative to: control).
Cc1cnc(NC2CCOCC2)nc1-n1cnc(C(=O)NC(CN)c2cc(F)cc(Cl)c2)c1 (centres unmarked) has a remaining activity of 103% (PRKG1 isoform beta; radiometric; 1 µM).
CN1CC(Oc2cnc(C#N)cc2-c2ccn3nc(NC(=O)C4CC4)cc3c2)C1 has an inhibition of 3% (PRKG1 isoform beta; inhibitor, KinaseProfiler panel; 1 µM).
The remaining activity of COc1cc(F)ccc1-c1ncnc(Nc2cccc(C[S@](C)(=N)=O)c2)n1 is reported as 112% (PRKG1 isoform beta; kinase activity; 10 µM, with: 10 µM ATP).

Repeated from above:
Cc1ccc(C(=O)NCc2ccsc2)cc1C#Cc1cn(C(C)C)c2ncnc(N)c12 gave a remaining activity of 126% (PRKG1 isoform beta; kinase activity; 1 µM, with: ATP at Km).
